Assay results from different studies.
Each line is one published result; not all experiments were run side by side. Several values in a cell are separate wells, animals, samples, runs or records. ± marks the error that the study gave.
Sequence of UniProt Q8IVT5 (whole entry, looked up): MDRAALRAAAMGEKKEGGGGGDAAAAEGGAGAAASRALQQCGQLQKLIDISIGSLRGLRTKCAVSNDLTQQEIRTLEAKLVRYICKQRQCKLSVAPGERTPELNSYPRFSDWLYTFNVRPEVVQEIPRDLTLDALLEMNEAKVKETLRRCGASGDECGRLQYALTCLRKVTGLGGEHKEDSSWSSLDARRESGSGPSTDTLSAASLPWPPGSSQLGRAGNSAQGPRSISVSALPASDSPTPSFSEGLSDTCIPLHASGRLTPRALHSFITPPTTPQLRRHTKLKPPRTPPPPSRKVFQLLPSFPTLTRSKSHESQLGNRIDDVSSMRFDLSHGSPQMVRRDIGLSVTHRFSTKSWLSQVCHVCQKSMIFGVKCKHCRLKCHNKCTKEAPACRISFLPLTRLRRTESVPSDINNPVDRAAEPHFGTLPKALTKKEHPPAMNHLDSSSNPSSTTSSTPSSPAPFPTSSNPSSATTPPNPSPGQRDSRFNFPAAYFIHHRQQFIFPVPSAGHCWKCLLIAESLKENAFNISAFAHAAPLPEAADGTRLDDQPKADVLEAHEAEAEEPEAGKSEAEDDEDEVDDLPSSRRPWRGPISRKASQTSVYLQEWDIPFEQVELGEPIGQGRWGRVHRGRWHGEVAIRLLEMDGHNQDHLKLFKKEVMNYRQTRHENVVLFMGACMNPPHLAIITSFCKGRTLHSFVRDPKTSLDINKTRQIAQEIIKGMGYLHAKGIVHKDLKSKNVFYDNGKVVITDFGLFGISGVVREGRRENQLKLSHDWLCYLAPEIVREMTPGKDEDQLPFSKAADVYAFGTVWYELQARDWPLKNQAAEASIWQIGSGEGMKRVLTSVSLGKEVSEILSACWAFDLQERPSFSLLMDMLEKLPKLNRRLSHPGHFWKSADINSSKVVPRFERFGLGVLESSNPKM
Sequence of UniProt P25025 (whole entry, looked up): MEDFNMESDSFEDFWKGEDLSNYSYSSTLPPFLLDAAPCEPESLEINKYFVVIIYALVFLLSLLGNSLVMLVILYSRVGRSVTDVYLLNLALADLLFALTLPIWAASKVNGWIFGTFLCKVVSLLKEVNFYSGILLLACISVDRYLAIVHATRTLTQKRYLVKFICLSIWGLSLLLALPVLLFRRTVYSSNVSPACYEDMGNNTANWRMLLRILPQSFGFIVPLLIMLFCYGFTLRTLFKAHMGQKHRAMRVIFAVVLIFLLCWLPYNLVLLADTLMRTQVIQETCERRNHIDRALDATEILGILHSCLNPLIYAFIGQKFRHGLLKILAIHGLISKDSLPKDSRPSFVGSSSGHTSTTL

C[C@H]1CN(c2n[nH]c3nc(N[C@H]4CC[C@H](NS(=O)(=O)CCC(F)(F)F)CC4)ncc23)CCO1  relative abundance (KSR1 (Homo sapiens, UniProt Q8IVT5); inhibitor, Kinobeads competition profiling; 20 µM; reference: vehicle): 1.24
CC(C)[C@@H]1NC(=O)CNC(=O)[C@H](CC(N)=O)NC(=O)[C@H](CCCNC(=N)N)NC(=O)[C@H](Cc2ccc(O)cc2)NC(=O)[C@H](C(C)C)NC(=O)[C@@H](NC(=O)[C@@H](NC(=O)[C@H](CC(N)=O)NC(=O)[C@H](Cc2c[nH]c3ccccc23)NC(=O)[C@H](C)NC(=O)[C@H](Cc2ccccc2)NC(=O)CN)C(C)C)CSSC[C@@H](C(=O)N[C@@H](Cc2cnc[nH]2)C(=O)N[C@@H](CCCNC(=N)N)C(=O)N[C@@H](CCCNC(=N)N)C(=O)N[C@@H](C)C(=O)N[C@@H](CC(N)=O)C(N)=O)NC(=O)[C@H](C(C)C)NC(=O)[C@H](CCCNC(=N)N)NC1=O  blood urea nitrogen (ICR mice, serum; intraductal mammary, 5 mg/kg, day 5): 10.2 ± 0.62 mmol/L
O=S(=O)(Nc1ccccc1)c1ccc(NC(=S)Nc2ccccc2)cc1  mean corpuscular haemoglobin concentration (mouse, female, blood; oral, 80 mg/kg daily, 14 days): 32.5 g/dL
COc1ncccc1-c1cnn2ccc(N3CCN(C(=O)OC(C)C)CC3)nc12  concentration (rat, plasma; oral, 30 mg/kg, 1.5 h, together with: yohimbine pretreatment): 1800 nM
CC(C)(O)c1cc(Nc2cc(Oc3cn(C4CC4)nc3C3CCOCC3)ccn2)ccn1  treatment-emergent adverse events (Thrombocytopenia; advanced cancer patients, dose escalation; oral, dose not given, 2 weeks on/off, all causality grade ≥3): 0%
COc1cccc(Oc2ccccc2NC(=O)CNC(=O)c2cccc3ccccc23)c1  blood glucose (esterase-deficient SCID mice, male; oral, 15 mg/kg/day, 14 days, toxicity study): 205 mg/dL and 304 mg/dL and 177 mg/dL
CC(C)n1c(C2CCNCC2)nc2c([N+](=O)[O-])c(Br)c(Br)cc21  AE leading to interruption (patients with AML; 125 mg): 2%
COc1cc(C(=O)NC2CCN(C)CC2)c(F)cc1Nc1ncc(C(F)(F)F)c(Oc2cccc3c2C(=O)N(C)C3)n1  fraction excreted in urine (0-24 h) (human patients, urine; oral, 200 mg single dose, geometric mean; reference: dose): 6.01%
C[C@@H](NC(=O)N1C(=O)[C@H](Cc2ccnc(N)c2)[C@H]1C(=O)O)C1CCCCC1  incidence of urine occult blood positive (healthy adult Chinese volunteers; continuous intravenous infusion, 1.0 mg/kg/h, 5-day infusion, CTCAE 5.0 grading): 12.5%
COc1c(C)cnc(Cn2cc(C#CCCOP(=O)(O)O)c3c(Cl)nc(N)nc32)c1C  STD10 (rat or dog; concentration not given, twice weekly, sensitive species): 10 mg/kg
Cc1ccc2ccccc2c1  Km (metabolism; pooled human liver microsomes; pH 7.4): 2.9 µM and 2.88 µM
CO[C@H]1C[C@@H]2CC[C@@H](C)[C@@](O)(O2)C(=O)C(=O)N2CCCC[C@H]2C(=O)O[C@H]([C@H](C)C[C@@H]2CC[C@@H](OC(=O)NCCOCCOCCOCCOCCOCCOCCOCCOCCC(=O)N3CCc4cc(Cn5nc(-c6ccc7oc(N)nc7c6)c6c(N)ncnc65)ccc4C3)[C@H](OC)C2)C[C@@H](O)[C@H](C)/C=C(\C)[C@@H](O)[C@@H](OC)C(=O)[C@H](C)C[C@H](C)/C=C/C=C/C=C/1C  maculopapular rash TEAE incidence (dose-escalation trial; patients with advanced solid tumours; intravenous, 1.6 mg/3 mg weekly, grade ≥3): 0%
CC(=O)c1c(C)c2cnc(Nc3ccc(C4CCN(CCS(C)(=O)=O)CC4)cn3)nc2n(C2CCCC2)c1=O  patients with SAR (HR+/HER2- advanced breast cancer patients; oral, dose not given): 0%
CC[C@H](C)[C@@H]([C@@H](CC(=O)N1CCC[C@H]1[C@H](OC)[C@@H](C)C(=O)N[C@@H](Cc1ccccc1)C(=O)O)OC)N(C)C(=O)[C@@H](NC(=O)[C@H](C(C)C)N(C)C)C(C)C  exposure relative to dose (refers to: conjugated compound-HPA; human patients, phase 1/2, plasma; dose not given, dosed as NaPi2b ADC): < 1.5%
CC(C)(c1ccccc1)c1cc(-n2nc3ccccc3n2)c(O)c(C(C)(C)c2ccccc2)c1  dermal uptake (exposure assessment; human, age 21-60 years, sunscreen): 0.48 ng/kg body weight/day
COc1cc2c(Oc3ccc4[nH]c(C)cc4c3F)ccnc2cc1OCC1(N)CC1  grade 3 mouth ulcer (paediatric refractory sarcoma patients; 10 mg): 0%
CCC[C@@](N)(CO)CCc1ccc(OCCCCCC(C)C)cc1  oral bioavailability (C57BL/6 mice; oral, 50 mg/kg): 69%
[O-][S+]1CCc2nc(N3CCC(c4ncc(Cl)cn4)CC3)nc(NC3(CO)CCC3)c21 (centres unmarked)  subjects with adverse events (phase I trial, refers to: abnormal gastrointestinal sounds; idiopathic pulmonary fibrosis patients; 18 mg twice daily): 10%
C[C@@H]1NC(=O)[C@H](CCCCNC(=O)CO/N=C/C(=O)NCCCC[C@@H]2NC(=O)[C@@H](Cc3ccccc3)NC(=O)[C@H](CC(=O)O)NC(=O)CNC(=O)[C@H](CCCNC(=N)N)NC2=O)NC(=O)CNC(=O)[C@@H]2CCCN2C(=O)[C@H](CCCCNC(=O)CO/N=C/C(=O)NCCCC[C@@H]2NC(=O)[C@@H](Cc3ccccc3)NC(=O)[C@H](CC(=O)O)NC(=O)CNC(=O)[C@H](CCCNC(=N)N)NC2=O)NC(=O)[C@H](CCCCNC(=O)CCNC(=O)CCNC(=O)CCNC(=O)[C@H](CCCCN)NC(=O)[C@H](Cc2ccccc2)NC(=O)CNC(=O)CN2CCCNCCNCCCNCC2)NC(=O)[C@H](CCCCNC(=O)CO/N=C/C(=O)NCCCC[C@@H]2NC(=O)[C@@H](Cc3ccccc3)NC(=O)[C@H](CC(=O)O)NC(=O)CNC(=O)[C@H](CCCNC(=N)N)NC2=O)NC(=O)CNC(=O)[C@@H]2CCCN2C(=O)[C@H](CCCCNC(=O)CO/N=C/C(=O)NCCCC[C@@H]2NC(=O)[C@@H](Cc3ccccc3)NC(=O)[C@H](CC(=O)O)NC(=O)CNC(=O)[C@H](CCCNC(=N)N)NC2=O)NC1=O [copper-64 labelled]  tissue uptake (normal mice, pancreas; intravenous, 0.74 MBq, 3 h post-injection): 0.75 ± 0.05 %ID/g
CCCCCCCCCCCCCCCC(=O)N[C@@H](CCC(=O)NCCCC[C@H](NC(=O)[C@H](CC(=O)O)NC(=O)[C@H](CO)NC(=O)[C@@H](NC(=O)[C@H](Cc1ccccc1)NC(=O)[C@@H](NC(=O)CNC(=O)[C@H](CCC(N)=O)NC(=O)[C@H](CO)NC(=O)[C@@H](N)Cc1c[nH]cn1)[C@@H](C)O)[C@@H](C)O)C(=O)N[C@@H](CO)C(=O)N[C@@H](CCC(=O)O)C(=O)N[C@@H](Cc1ccc(O)cc1)C(=O)N[C@@H](CC(C)C)C(=O)N[C@@H](CC(=O)O)C(=O)N[C@@H](CO)C(=O)N[C@@H](CCC(=O)O)C(=O)N[C@@H](CCCNC(=N)N)C(=O)N[C@@H](C)C(=O)N[C@@H](CCCNC(=N)N)C(=O)N[C@@H](CC(=O)O)C(=O)N[C@@H](Cc1ccccc1)C(=O)N[C@H](C(=O)N[C@@H](C)C(=O)N[C@@H](Cc1c[nH]c2ccccc12)C(=O)N[C@@H](CC(C)C)C(=O)N[C@@H](CCC(=O)O)C(=O)N[C@@H](C)C(=O)NCC(=O)NCC(=O)O)C(C)C)C(=O)O  treatment-related adverse events (human, CrCl ≥45 to <60 mL/min; sc, 100 µg single dose): 42.9%
CC[C@H](C)[C@H](NC(=O)[C@H](Cc1ccccc1)NC(=O)[C@H](CCC(=O)O)NC(=O)[C@H](CCCNC(=N)N)NC(=O)[C@H](C)NC(=O)[C@H](C)NC(=O)[C@H](CCC(N)=O)NC(=O)[C@H](CCC(=O)O)NC(=O)[C@H](CCC(=O)O)NC(=O)[C@H](CC(C)C)NC(=O)[C@H](Cc1ccc(O)cc1)NC(=O)[C@H](CO)NC(=O)[C@H](CO)NC(=O)[C@@H](NC(=O)[C@H](CC(=O)O)NC(=O)[C@H](CO)NC(=O)[C@@H](NC(=O)[C@H](Cc1ccccc1)NC(=O)[C@@H](NC(=O)CNC(=O)[C@H](CCC(=O)O)NC(=O)[C@H](C)NC(=O)CCc1c[nH]cn1)[C@@H](C)O)[C@@H](C)O)C(C)C)C(=O)N[C@@H](C)C(=O)N[C@@H](Cc1c[nH]c2ccccc12)C(=O)N[C@@H](CC(C)C)C(=O)N[C@H](C(=O)N[C@@H](CCCNC(=N)N)C(=O)NCC(=O)N[C@@H](CCCNC(=N)N)C(=O)N[C@@H](CCCCNC(=O)COCCOCCNC(=O)COCCOCCNC(=O)CC[C@H](NC(=O)CCCCCCCCCCCCCCCCC(=O)O)C(=O)O)C(=O)NCC(=O)NCC(=O)N[C@@H](CO)C(=O)N[C@@H](CCCCNc1c(NCCCCCN(O)C(=O)CCC(=O)NCCCCCN(O)C(=O)CCC(=O)NCCCCCN(O)C(C)=O)c(=O)c1=O)C(=O)O)C(C)C [zirconium-89 labelled]  tissue uptake (rat, intestine content; intravenous, 3 nmol/kg, 168 h): 0.03 %ID/g
C[C@]1(CO)Cc2ncn(-c3ccc(C#N)c(Cl)c3)c2C(=O)O1  Cmax (human, plasma; 20 mg single dose, geometric mean): 679 nM
COc1ccc(-c2[nH]c3c(OP(=O)([O-])[O-])c(OC)ccc3c2C(=O)c2cc(OC)c(OC)c(OC)c2)cc1OC.[Na+].[Na+]  tolerability (outcome: not toxic; mouse, BALB/c, 4T1-Luc tumour; intraperitoneal, 20 mg/kg): not toxic
CC(C)C[C@H](NC(=O)[C@H](CCC(N)=O)NC(=O)[C@H](C)NC(=O)[C@H](C)NC(=O)[C@H](CCCNC(=N)N)NC(=O)[C@H](CCCNC(=N)N)NC(=O)[C@H](CCCNC(=N)N)NC(=O)[C@H](CC(C)C)NC(=O)[C@H](Cc1c[nH]cn1)NC(=O)[C@@H](NC(=O)[C@H](CCCCN)NC(=O)[C@H](CCCNC(=N)N)NC(=O)[C@H](CCCNC(=N)N)NC(=O)[C@H](CCCNC(=N)N)NC(=O)[C@H](CCC(N)=O)NC(=O)[C@H](CCCNC(=N)N)NC(=O)[C@H](CCCNC(=N)N)NC(=O)[C@H](CCCCN)NC(=O)[C@H](CCCCN)NC(=O)[C@H](CCCNC(=N)N)NC(=O)CNC(=O)[C@@H](N)Cc1ccc(O)cc1)[C@@H](C)O)C(=O)N[C@@H](CCCCN)C(N)=O  jump threshold (flinch-jump test; rat; intra-CA1 bilateral, dose not given): no effect
COc1cc(Nc2ncc(F)c(Nc3ccc4c(n3)NC(=O)C(C)(C)O4)n2)cc(OC)c1OC  IC50 (CXCR2 (Homo sapiens, UniProt P25025)): > 10 µM
O=c1ccc2ncc(=O)n3c2n1C[C@H]3CN1CCC(NCc2cc3c(cn2)OCCC3)CC1  incidence of cardiac disorders (healthy human volunteers; oral, 1500 mg, rifampicin cohort, together with: rifampicin 600 mg): 6%
O=C(Nc1ccccc1)C1CCN(C(=O)Oc2cccnc2)CC1  change in internal perception score (psychotropic effects VAS; healthy women; 20 mg; reference: pre-dose baseline, direction not given): 0
Cn1ncc(-c2nc(N[C@H]3CC[C@H](N)CC3)ncc2Cl)c1CC1CC1  febrile neutropenia incidence (phase I dose escalation; human patients; dose not given, grade 3 or higher TEAE): 33%
CC(C)C[C@H](NC(=O)[C@H](CCCCN)NC(=O)OCC1c2ccccc2-c2ccccc21)C(=O)N[C@H](C(=O)N[C@@H](Cc1ccccc1)C(=O)N[C@@H](Cc1ccccc1)C(=O)N[C@@H](CCCCN)C(=O)NCC(=O)N[C@@H](Cc1ccccc1)C(=O)N[C@@H](C)C(=O)N[C@@H](Cc1c[nH]c2ccccc12)C(=O)N[C@@H](CC(N)=O)C(=O)N[C@H](C(=O)N[C@H]1CSSC[C@@H](C(=O)N[C@@H](Cc2c[nH]cn2)C(=O)N[C@@H](CCCNC(=N)N)C(=O)N[C@@H](CCCNC(=N)N)C(=O)N[C@@H](C)C(=O)N[C@@H](CC(N)=O)C(N)=O)NC(=O)[C@H](C(C)C)NC(=O)[C@H](CCCNC(=N)N)NC(=O)[C@H](C(C)C)NC(=O)CNC(=O)[C@H](CC(N)=O)NC(=O)[C@H](CCCNC(=N)N)NC(=O)[C@H](Cc2ccc(O)cc2)NC(=O)[C@H](C(C)C)NC1=O)C(C)C)C(C)C  neutrophils (ICR mice, blood; intraductal mammary, 5 mg/kg, day 5): 18.7 ± 1%
CC[C@H](C)[C@@H]1NC(=O)[C@@H]2CCCN2C(=O)[C@H](CC(C)C)NC(=O)[C@H](CC(C)C)NC(=O)CNC(=O)[C@@H](NC(=O)[C@@H](NC(=O)[C@H](CC(=O)O)NC(=O)CNC(=O)[C@@H](NC(=O)[C@H](C)NC(=O)CNC(=O)[C@H](CCCCN)NC(=O)[C@H](CC(C)C)NC(=O)[C@H](CC(C)C)NC(=O)[C@H](CCCCN)NC(=O)CNC(=O)[C@@H](NC(=O)[C@@H](N)CC(C)C)C(C)C)C(C)C)C(C)C)CSSC[C@@H](C(=O)O)NC1=O  log2 fold change (RNA-seq, refers to: Prss16; mouse, traumatic brain injury model, frontal cortex and hippocampus; dose not given; reference: TBI alone): -2.2
O=C1Nc2cc3[nH]nc(-c4ccncc4)c3cc2CN1Cc1ccccc1  patients with TEAE (refers to: decreased appetite; patients with advanced solid tumours; intravenous, dose not given, both schedules pooled): 27%
CCN1CCN(Cc2ccc(Nc3ncc(F)c(-c4cc(F)c5nc6n(c5c4)[C@H](C)CCC6)n3)nc2)CC1  Hypertriglyceridemia incidence, grade ≥3 (advanced solid tumour patients; dose not given, Phase Ia monotherapy): 4.2%
S=c1oc(-c2ccccc2)nn1CN1CCN(Cc2ccccc2)CC1  serum ALP (Wistar rat female; oral, 100 mg/kg, acute toxicity OECD 423): 11 ± 1.02 KA/dL
COc1ccc2nc3cc(Cl)ccc3c(Nc3cc(CN4CCCC4)c(O)c(CN4CCCC4)c3)c2n1  red blood cell count (mouse, blood; intraperitoneal, 14 mg/kg): 8.98 10¹²/L
CN1CCN(S(=O)(=O)c2cc([N+](=O)[O-])ccc2N(CCOS(C)(=O)=O)CCOS(C)(=O)=O)CC1  blood urea nitrogen (naive NOD/SCID mice, pooled blood; intraperitoneal, 25 mg/kg, week 4): 11 mmol/L
